Published values of several laboratories.
Numbered parts are unrelated; each lists some results of a single study. Positions count from the first letter of the parent shown.

Sample 1 — method: EMSA with sequencing; molecule type: double-stranded DNA, one strand shown; sample: in vitro; concentration: 10 and 20 nM; baseline: negative control set to 0; direction: higher = stronger binding; measurement: normalised bound fraction
Target: Hepatocyte nuclear factor 3-alpha (Foxa1, Mus musculus, UniProt P35582, residues 1-468, full length assumed)
Setting: whole designed probe, mean of two concentrations, ends assumed
Constant ends, left off below: GTGAGCGGTGCCCATTGATGGGGAAC … TTTCACTGGGATCGTGGGGAC
Target sequence (chain): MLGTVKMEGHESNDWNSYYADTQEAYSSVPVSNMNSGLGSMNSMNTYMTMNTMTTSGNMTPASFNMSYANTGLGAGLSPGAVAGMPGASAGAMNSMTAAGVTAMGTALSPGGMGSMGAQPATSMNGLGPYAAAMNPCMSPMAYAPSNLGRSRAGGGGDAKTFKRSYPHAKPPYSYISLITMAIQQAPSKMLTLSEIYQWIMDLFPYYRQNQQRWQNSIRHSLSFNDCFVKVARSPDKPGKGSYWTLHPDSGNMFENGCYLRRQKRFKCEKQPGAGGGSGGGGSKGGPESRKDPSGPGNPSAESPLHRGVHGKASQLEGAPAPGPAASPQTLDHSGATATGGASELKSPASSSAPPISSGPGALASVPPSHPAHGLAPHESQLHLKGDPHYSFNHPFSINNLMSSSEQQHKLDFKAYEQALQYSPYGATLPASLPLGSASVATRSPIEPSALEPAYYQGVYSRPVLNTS
ATCTTCCCCCTCTTCCTTGCCCCACCAGCTCACCTTCCCGGGTTATTTGCAGATAGGAAAATAAATAAAGCCGGCATTCGTTAACCCTCTTCTGGCGCAAACTGCTGTTTGCTCTGGATGAATCATGGTCCTTTGGCGACGCCAGGCTCCGGGAGAGCAAAGCACCGTGTCAGGGCCTAGGCCAGTGGTGGCC: 0.323 ratio
GTTGACTAGAAATACTGAGTAGCAGGGTAATGAAAAGCATGGTGATCATATTGAAGAAGTGGGAAAAAAAAAGCAAAGGTAGCAACTGCTCTTGTTTACACTGTAAATGTTCTGGCTCACTTGTGAAATATTCACCTTTTTCTTTGCAGTTGATAATATCCATTTTAACACAAAAATAATTTGCTTCTTCCAC: 0.331 ratio
TTTTCATTTTCAGATTTGCTATACTTGAAACCACTTGTTCCACTGTAAAATGTAATCCTTTATGAATTTTATATTTATTGATTCAAAGGTTCTATGTTTACATTGCCATGCCATGTCTAACAATAAGGTCCACTTGTAAGTAGATTTATTTGTTATTGGTAACAATAATCTCACACAATTTTGATGTATTCAG: 0.474 ratio
ATGAAATGTTTATTAAGCACCTGTTATTACACACTGGGGGACCCGAAGAGTTATACAACAGCTCATTTATAAAACCTAGCAGGAGGGACACAATGTAATCTTGAGCAAATGACAATAAAAATTTCATTTGAAATAAATGTAATATTTGATAAGTGTTCAAGACATTTAGAGGAGGGAGTCATCGTTGCATCCC: 0.116 ratio
ATCTTCCCCCTCTTCCTTGCCCCACCAGCTCACCTTCCCGGGTTATTTGCAGATAGGAAAATAAATAAAGCCGGCATTCGTTAACCCTCTTCTGGCGCAAACTGCTGTTTGCTCTGGATGAATCATGGATGCGGCCGTGCCCCATTGTCCGGGAGAGCAAAGCACCGTGTCAGGGCCATGATCCGGGGTGGCC: 0.352 ratio
TAATAACGGCAATTCAGCACCCTCTTTCAAAGTAATATCACTGCAAATGGATCAGATAATAAAATGGAGCACTATAGCAATTCTGTGCACAAAATAATTTAGAAACCTGAACGCCCTGACAATGGTTCTACAATGAACACCAGAAAATTCCAAGCTAAACCACTGGTTCAACCCACTTACTGGGTTAAAGAGA: -0.0569 ratio
GTCCCCTTGTGCGTAGATGGTGGCAAATGATTGTTTGCCAAGCCTTCTACCTCCTCCCTTTCTGTGTTCCATTGAGATCATGGAAATGCAAAGTAATTTGCCATGGAGTAAAATGCCTCCGAGAGTATTTATTTAAGAGTATTGTTCCAGGATATGCACGAAGATAAAGACTTTATGTAATGAATGAGTGACT: 0.345 ratio
CATGTACAAACAAAATATGGGTTGTGTAATTTCAGTAATTCCATGTACAAGTTAAACACATTGCACAATTCTGATATTTGCATTTAAAATGTCGTAAACATGAATGCTAACAATCTTTTTTTTTTTTCCTGAGACGGAGTCTTGCTCTATCGCCCAGGCTGGAGTGCAGCGGCACAATCTCTGCTTACTGCCA: 0.29 ratio

Sample 2 — target: CCNE2, cyclin fold, Cln2 fusion (human); method: yeast growth competition, sequencing; sample: yeast; setting: strong parent motif; baseline: not given; direction: higher = stronger binding; measurement: normalised enrichment score
Parent: SCAPER docking peptide (human); SNARRSLNFGGST
SNERRSLNFGGST [A3E]: 0.629
SNARRALNFGGST [S6A]: 3.09
SNARRSLNFGGSF [T13F]: 0.817
SNIRRSLNFGGST [A3I]: 1.05
CNARRSLNFGGST [S1C]: 2.03
SNARRSLCFGGST [N8C]: 0.846
SNAPRSLNFGGST [R4P]: 0.075
SNARRSLNFGWST [G11W]: 1.26
SNARRSLNFGIST [G11I]: 0.895
SNARTSLNFGGST [R5T]: 0.347
SNARRSLNFGNST [G11N]: 1.4
SNALRSLNFGGST [R4L]: -0.224
SNARRSLNFGGSE [T13E]: 1.55
SNARRSLNLGGST [F9L]: 0.274

Sample 3 — target: FOS, bZIP domain (human); method: DHFR protein complementation; sample: yeast; baseline: wild-type JUN-FOS pair; direction: higher = stronger binding; measurement: binding fitness
Setting: single substitutions, most at no-binding floor
Parent: JUN, bZIP domain (human); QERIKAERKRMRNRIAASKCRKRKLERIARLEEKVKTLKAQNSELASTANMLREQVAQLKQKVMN; partner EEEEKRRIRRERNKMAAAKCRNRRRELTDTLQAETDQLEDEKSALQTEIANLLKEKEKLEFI
Q55P: -1.03 natural log
I28H: -0.119 natural log
L38Q: -0.446 natural log
E54S: -0.214 natural log
R53C: -1.18 natural log
L38H: -1.35 natural log
R53S: -0.653 natural log
Q41M: -0.12 natural log
L31M: 0.0857 natural log
S47P: -1.29 natural log
T37R: -0.0547 natural log
S43P: -1.26 natural log
E32W: -0.48 natural log
Q58C: -0.0712 natural log
I28W: -0.218 natural log
K36W: -0.373 natural log

Further values, each from its own experiment
PhoQ, residues 284 288 289 292 302 303 GNNTDL  fold induction (PhoP, residues 12 14 15 18 19 NHFRA (Escherichia coli, UniProt P23836); Sort-seq, measured: YFP reporter; E. coli; PhoQ-PhoP variant library, with: 10 µM Mg2+; baseline: high Mg2+ state, higher = stronger signaling): 1.63

Excerpt of the above (sample 3):
K36W: -0.373 natural log
S43P: -1.26 natural log
L31M: 0.0857 natural log
Q55P: -1.03 natural log
I28H: -0.119 natural log
I28W: -0.218 natural log
